Assay results from different studies.
Numbered parts are unrelated; each lists some results of a single study. Positions count from the first letter of the parent shown.
Sequence of UniProt P15056 (whole entry, unmodified, looked up): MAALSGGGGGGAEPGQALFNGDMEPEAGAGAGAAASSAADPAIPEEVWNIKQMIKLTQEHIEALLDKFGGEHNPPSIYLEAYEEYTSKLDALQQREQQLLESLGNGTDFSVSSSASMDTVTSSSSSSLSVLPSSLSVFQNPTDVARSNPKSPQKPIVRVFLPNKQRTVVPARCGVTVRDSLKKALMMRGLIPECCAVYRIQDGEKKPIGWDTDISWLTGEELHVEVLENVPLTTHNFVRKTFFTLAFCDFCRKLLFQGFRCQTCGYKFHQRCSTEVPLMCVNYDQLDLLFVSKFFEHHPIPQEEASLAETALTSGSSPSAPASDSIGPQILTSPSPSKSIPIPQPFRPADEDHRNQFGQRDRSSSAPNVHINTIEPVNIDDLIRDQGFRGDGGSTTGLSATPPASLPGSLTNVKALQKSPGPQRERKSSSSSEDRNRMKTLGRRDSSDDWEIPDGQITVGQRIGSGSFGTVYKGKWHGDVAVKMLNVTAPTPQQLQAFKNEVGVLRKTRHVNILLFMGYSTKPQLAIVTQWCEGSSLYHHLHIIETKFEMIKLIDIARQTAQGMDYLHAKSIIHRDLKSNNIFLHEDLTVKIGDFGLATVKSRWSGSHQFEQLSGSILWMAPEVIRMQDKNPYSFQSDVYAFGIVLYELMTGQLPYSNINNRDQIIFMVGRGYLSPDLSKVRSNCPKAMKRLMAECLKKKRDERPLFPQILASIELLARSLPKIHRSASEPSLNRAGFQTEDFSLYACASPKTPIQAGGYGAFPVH
Sequence of UniProt Q9UPE1 (whole entry, looked up): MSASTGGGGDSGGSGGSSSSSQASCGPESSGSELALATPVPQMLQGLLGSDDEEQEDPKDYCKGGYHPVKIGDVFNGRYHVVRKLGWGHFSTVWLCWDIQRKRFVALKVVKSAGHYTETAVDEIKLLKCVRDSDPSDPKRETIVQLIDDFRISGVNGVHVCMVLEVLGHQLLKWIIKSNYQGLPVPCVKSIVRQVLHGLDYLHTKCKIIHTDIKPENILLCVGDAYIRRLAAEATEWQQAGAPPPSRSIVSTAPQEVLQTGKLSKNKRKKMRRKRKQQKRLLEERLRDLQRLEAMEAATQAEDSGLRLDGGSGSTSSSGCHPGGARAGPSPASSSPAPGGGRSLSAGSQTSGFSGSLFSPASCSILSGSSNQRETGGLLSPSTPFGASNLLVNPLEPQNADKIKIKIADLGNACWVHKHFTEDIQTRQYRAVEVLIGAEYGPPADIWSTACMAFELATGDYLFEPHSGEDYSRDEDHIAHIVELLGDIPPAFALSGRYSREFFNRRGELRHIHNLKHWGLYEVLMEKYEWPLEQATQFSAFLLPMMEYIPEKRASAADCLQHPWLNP
Sequence of UniProt P53355 (whole entry, looked up): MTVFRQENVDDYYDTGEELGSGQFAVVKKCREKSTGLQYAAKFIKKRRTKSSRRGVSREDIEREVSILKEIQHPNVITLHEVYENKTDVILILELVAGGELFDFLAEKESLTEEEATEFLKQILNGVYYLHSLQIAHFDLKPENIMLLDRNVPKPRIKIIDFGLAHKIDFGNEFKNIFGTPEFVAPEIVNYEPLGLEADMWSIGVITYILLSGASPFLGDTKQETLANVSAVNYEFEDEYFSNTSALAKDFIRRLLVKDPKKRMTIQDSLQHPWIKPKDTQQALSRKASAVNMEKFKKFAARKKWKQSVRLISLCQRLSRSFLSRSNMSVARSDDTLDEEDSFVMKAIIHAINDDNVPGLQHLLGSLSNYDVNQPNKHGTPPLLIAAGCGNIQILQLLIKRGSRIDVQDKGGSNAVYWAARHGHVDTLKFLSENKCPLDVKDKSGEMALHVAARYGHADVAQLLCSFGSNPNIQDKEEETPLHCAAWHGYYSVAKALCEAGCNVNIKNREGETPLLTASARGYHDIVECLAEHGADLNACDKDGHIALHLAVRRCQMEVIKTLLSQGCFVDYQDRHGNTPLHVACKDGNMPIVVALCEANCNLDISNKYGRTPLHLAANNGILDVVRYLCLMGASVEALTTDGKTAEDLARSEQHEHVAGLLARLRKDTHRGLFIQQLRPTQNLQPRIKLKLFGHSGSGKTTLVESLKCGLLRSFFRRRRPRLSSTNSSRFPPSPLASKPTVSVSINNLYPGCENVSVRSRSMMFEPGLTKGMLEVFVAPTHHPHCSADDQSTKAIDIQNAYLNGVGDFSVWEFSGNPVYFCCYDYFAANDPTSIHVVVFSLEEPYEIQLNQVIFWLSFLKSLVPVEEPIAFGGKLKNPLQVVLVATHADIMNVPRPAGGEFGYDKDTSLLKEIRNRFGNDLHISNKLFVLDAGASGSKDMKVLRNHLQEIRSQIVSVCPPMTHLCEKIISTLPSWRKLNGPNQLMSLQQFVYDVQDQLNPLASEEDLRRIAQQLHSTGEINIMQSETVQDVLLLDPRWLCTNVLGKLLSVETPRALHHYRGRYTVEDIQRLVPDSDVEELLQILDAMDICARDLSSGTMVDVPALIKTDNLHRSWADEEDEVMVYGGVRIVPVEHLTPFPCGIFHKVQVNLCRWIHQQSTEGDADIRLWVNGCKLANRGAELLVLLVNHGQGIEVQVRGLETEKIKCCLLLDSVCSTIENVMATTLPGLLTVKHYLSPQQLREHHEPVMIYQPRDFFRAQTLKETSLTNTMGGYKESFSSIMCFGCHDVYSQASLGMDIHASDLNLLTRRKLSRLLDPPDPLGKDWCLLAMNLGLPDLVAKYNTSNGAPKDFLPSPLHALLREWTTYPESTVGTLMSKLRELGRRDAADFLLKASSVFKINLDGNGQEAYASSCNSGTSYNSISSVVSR
Sequence of UniProt P23458 (whole entry, looked up): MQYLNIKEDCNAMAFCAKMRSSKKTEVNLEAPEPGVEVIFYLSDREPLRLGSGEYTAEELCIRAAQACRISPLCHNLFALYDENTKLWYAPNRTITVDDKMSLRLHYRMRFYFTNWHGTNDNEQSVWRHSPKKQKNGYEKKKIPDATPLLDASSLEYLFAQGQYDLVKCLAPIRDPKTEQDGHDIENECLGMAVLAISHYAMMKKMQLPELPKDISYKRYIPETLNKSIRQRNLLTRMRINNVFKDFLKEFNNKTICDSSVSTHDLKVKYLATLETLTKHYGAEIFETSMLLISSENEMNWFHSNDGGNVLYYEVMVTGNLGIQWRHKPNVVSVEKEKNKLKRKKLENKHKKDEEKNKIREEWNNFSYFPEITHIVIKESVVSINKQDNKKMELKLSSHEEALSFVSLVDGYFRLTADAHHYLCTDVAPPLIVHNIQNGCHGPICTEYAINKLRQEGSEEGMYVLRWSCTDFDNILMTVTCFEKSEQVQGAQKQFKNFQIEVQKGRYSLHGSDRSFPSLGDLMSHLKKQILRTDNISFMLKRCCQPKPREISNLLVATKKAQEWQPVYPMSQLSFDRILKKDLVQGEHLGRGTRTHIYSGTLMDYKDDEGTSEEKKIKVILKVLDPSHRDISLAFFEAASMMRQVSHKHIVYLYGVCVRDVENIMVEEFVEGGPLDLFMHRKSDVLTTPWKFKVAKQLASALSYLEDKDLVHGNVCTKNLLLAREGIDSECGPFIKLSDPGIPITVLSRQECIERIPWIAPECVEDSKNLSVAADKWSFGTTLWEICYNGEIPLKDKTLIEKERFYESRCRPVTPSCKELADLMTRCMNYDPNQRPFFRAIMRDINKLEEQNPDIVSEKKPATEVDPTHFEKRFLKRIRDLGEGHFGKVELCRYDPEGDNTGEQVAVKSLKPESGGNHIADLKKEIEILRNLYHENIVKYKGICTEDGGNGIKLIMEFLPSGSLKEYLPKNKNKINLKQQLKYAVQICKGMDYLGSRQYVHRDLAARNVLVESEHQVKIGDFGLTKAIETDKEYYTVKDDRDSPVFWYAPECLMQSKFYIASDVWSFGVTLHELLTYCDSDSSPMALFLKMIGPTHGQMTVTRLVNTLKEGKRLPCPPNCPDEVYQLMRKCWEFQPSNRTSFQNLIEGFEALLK

Sample 1
Target: Interferon regulatory factor 7, full length, phosphomimetic (IRF7, Homo sapiens, UniProt Q92985, residues 1-503, S471D/S472D/S475D/S476D/S477D/S483D/S484D/S487D)
Technique: protein-binding microarray
Molecule type: double-stranded DNA, one strand shown
Matrix: in vitro
Concentration: 2200 nM top
Setting: 60-bp whole probe
With: salmon DNA 0.4 mg/ml
Reference: random background probes
Reading: higher = stronger binding
All sequences stand within: GCCTAGCAC … GTCTTGATTCGCTTGACGCTGCTG
Construct (chain): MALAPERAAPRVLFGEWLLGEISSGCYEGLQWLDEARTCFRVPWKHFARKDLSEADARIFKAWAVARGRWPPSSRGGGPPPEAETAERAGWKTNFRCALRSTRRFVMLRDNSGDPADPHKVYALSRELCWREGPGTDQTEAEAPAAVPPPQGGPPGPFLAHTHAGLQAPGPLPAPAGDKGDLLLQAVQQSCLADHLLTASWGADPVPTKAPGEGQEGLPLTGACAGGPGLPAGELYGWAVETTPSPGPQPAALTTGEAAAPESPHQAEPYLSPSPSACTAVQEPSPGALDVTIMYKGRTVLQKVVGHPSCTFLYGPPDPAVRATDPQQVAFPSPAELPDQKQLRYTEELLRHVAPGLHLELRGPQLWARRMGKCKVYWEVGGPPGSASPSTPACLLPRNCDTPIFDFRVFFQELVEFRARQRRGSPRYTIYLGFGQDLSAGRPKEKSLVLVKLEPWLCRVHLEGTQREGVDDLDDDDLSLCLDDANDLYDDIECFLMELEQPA
`TCAACTTTCTACTTCTCACTGTGCTAG` — result for “fitted relative affinity”: 5.38 z-score.
`TTAGGACTGGGTTTCGGTAAGTGCTAG` — result for “fitted relative affinity”: 0.876 z-score.
Under “fitted relative affinity”, `GACGATTTCAGCATCGAGACGTGCTAG` is recorded as 0.511 z-score.
`GTCGAACTGGGGACTGGAGACGTGCTA` — result for “fitted relative affinity”: 0.0451 z-score.
`GACGGTTTCGACTCTCGGGACGTGCTA`: “fitted relative affinity” 6.55 z-score.
For `TCATTTTCCTTATTGCTTACTGTGCTA`, “fitted relative affinity” read 4.26 z-score.
Under “fitted relative affinity”, `GACGGTATCGGGTTCGGGACGTGCTAG` is recorded as 0.753 z-score.
For `GACGATTTCAGTCTGGAGACGTGCTAG`, “fitted relative affinity” read 0.604 z-score.

Sample 2
Structure (SMILES): CC(C)(O)c1cncc(-c2nc3ccc(F)cc3n2C2CC2)c1
Effect on: cell-free assay
Technique: competition with immobilised ligand
Concentration: 1 µM
CSF1R (Homo sapiens, UniProt P07333) — remaining binding: 99%.
For PKMYT1 (Homo sapiens, UniProt Q99640): remaining binding read 100%.
The remaining binding was 100% (DAPK1 (Homo sapiens, UniProt P53355)).
The remaining binding was 80% (Tyrosine-protein kinase JAK1, JH2 (JAK1, Homo sapiens, UniProt P23458)).
It gave 100% for remaining binding (CDK5 (Homo sapiens, UniProt Q00535)).
It gave 100% for remaining binding (SRPK3 (Homo sapiens, UniProt Q9UPE1)).
It gave 93% for remaining binding (TEK (Homo sapiens, UniProt Q02763)).
BRAF (Homo sapiens, UniProt P15056, V600E) — remaining binding: 98%.

Sample 3
Change: L29K
Target: ABI1, truncated, D143A, DHFR fusion (Arabidopsis thaliana)
Technique: DHFR PCA, deep sequencing
Matrix: yeast
Setting: methotrexate growth selection, single substitutions
Reference: wild-type fitted maximum
Reading: higher = stronger binding
Starting sequence: PYL1, truncated, DHFR fusion (Arabidopsis thaliana); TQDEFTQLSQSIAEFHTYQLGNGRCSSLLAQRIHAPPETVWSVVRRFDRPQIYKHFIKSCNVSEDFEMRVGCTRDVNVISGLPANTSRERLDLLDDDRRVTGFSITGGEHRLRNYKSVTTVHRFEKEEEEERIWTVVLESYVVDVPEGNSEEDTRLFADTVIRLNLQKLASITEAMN; partner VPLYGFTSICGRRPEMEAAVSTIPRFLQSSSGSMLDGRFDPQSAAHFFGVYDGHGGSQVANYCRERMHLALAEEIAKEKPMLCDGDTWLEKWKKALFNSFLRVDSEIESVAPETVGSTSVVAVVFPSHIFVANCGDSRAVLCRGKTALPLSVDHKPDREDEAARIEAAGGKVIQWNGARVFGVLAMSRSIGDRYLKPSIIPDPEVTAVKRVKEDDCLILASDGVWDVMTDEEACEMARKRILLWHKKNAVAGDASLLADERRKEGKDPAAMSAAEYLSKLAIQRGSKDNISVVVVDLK
It gave 88.2% for “relative binding score” (with: (+)-ABA 710 µM).
The “relative binding score” was 47.6% (with: (+)-ABA 58 µM).
with: (+)-ABA 0.11 µM — “relative binding score”: -0.00887%.
It gave -1.98% for “relative binding score” (with: (+)-ABA 0.0091 µM).
For with: (+)-ABA 1.4 µM: “relative binding score” read 5.92%.
with: (+)-ABA 0.39 µM — “relative binding score”: -9.64%.

Single results of other studies
Target: Platelet-derived growth factor receptor alpha (PDGFRA, Homo sapiens, UniProt P16234)
Sequence of UniProt P16234 (whole entry, looked up): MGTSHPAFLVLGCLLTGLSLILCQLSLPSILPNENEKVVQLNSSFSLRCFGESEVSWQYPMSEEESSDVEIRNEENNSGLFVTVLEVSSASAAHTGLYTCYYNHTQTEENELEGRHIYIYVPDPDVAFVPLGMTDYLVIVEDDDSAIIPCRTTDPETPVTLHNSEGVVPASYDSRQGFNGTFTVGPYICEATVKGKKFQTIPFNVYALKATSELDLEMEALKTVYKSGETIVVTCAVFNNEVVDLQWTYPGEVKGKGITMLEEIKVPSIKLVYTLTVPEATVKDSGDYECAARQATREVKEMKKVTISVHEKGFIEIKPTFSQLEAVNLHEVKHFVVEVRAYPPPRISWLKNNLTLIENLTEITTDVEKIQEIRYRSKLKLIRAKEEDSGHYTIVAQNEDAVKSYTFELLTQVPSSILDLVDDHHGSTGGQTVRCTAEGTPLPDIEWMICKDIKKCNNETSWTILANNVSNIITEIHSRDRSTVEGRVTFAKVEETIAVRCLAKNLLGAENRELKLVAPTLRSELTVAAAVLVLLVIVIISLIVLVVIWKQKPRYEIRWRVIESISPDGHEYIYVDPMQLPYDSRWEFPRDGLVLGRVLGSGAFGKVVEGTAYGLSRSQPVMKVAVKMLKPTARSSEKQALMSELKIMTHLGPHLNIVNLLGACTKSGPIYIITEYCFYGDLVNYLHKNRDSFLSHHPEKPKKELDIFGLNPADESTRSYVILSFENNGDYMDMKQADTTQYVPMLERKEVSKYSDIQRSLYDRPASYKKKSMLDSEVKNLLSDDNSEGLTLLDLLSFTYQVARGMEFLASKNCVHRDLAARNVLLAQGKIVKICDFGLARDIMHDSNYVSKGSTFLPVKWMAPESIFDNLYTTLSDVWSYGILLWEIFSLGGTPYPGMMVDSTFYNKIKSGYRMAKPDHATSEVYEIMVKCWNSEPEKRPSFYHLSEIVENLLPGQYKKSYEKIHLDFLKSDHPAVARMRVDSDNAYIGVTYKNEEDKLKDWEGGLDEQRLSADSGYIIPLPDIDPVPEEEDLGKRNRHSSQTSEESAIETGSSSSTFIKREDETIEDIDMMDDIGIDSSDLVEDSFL
Effect on: enzyme activity
Action: inhibitor
Concentration: 0.5 µM
Reference: control
With `C#Cc1cccc(Nc2ncnc3cc(OCCOC)c(OCCOC)cc23)c1` the remaining activity was 84.4%.
The remaining activity of `COc1cc2ncnc(Nc3ccc(Oc4ccccc4)cc3)c2cc1OC` is reported as 88.8%.

Repeated from above (sample 1):
`TTAGGACTGGGTTTCGGTAAGTGCTAG` — result for “fitted relative affinity”: 0.876 z-score.
Under “fitted relative affinity”, `GACGGTATCGGGTTCGGGACGTGCTAG` is recorded as 0.753 z-score.
For `TCATTTTCCTTATTGCTTACTGTGCTA`, “fitted relative affinity” read 4.26 z-score.
